# Results from different studies.
# Every numbered part comes from another study and shows a few of its results, in no order. Changes are numbered by the printed parent chain.

# Set 1 — target: vanadate, free oxyanion; method: microfluidic competitive inhibition; medium: in vitro, cell-free expressed; concentration: not given; reading: lower = stronger binding
# Setting: derived from inhibition constants, unchanged parent 676 nM
# Starting sequence: PafA, mature enzyme, eGFP fusion (Elizabethkingia meningoseptica, UniProt Q9KJX5); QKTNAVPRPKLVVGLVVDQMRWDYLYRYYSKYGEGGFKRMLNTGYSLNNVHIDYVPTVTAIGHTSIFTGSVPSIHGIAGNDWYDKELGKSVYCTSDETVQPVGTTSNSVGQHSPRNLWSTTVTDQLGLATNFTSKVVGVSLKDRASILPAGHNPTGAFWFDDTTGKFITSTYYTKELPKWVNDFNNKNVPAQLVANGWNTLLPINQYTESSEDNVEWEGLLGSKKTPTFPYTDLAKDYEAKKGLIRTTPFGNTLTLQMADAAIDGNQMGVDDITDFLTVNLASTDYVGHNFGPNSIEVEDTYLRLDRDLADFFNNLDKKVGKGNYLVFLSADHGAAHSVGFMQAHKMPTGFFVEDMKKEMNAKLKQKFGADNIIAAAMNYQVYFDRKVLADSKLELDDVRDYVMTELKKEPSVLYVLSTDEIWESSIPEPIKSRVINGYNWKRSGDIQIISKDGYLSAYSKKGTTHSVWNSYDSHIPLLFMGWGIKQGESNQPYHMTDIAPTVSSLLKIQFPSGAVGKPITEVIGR
Variant,oxyanion analog dissociation constant
K462V,871 nM
P430V,661 nM
D397G,801 nM
L202G,530 nM
G438A,420 nM
K367V,763 nM
D237V,489 nM
Y207V,746 nM
L396V,825 nM
Y24V,885 nM
G488A,631 nM
I447V,882 nM
K363G,673 nM
N314V,757 nM
Y29V,1.12 µM
K357V,759 nM
D53G,517 nM
V109A,796 nM
F352G,515 nM
E395G,695 nM
N188G,605 nM
Q267V,1.16 µM
M342V,787 nM
D453V,491 nM
N199G,639 nM

# Set 2 — target: CCND2, cyclin fold, Cln2 fusion (human); method: yeast growth competition, sequencing; medium: yeast; setting: weak parent motif; reference: not given; reading: higher = stronger binding; starting sequence: viral docking peptide; KGVKRKLFAEDSS
Variant,normalised enrichment score
G2W,0.242
E10V,-0.12
K6A,0.0251
S13A,0.16

# Set 3 — method: protein binding microarray; form: double-stranded DNA, one strand shown; medium: in vitro; concentration: not given; reference: not given; reading: higher = stronger binding
# Target: Histone acetyltransferase KAT6A, both winged helices, GST fusion (KAT6A, Homo sapiens, UniProt Q92794, residues 1-181)
# Setting: 8-mer, flanks averaged, mean of 2 arrays, mostly near background
# Target sequence (chain): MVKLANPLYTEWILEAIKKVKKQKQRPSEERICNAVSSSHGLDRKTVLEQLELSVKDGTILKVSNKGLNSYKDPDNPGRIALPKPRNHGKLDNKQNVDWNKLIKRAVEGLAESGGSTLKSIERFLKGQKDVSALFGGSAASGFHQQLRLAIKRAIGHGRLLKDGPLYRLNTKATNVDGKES
Sequence,E-score
ATAAGGTG,-0.122
CAGAATCA,0.00536
CAGTGCAG,-0.0448
CATATAGC,-0.0199
CCACGATC,0.00223
ACGCAGAT,0.146
GAGTGCCA,-0.131
AGCTAGCC,-0.0542

# Set 4 — method: RNA Bind-n-Seq; form: RNA; medium: in vitro; concentration: not given; reference: input RNA pool; reading: higher = stronger binding
# Target: RING finger protein unkempt homolog, zinc fingers 1-6, GST-SBP tag (UNK, Homo sapiens, UniProt Q9C0B0, residues 30-357)
# Chain of UniProt Q9C0B0 (30-357, looked up): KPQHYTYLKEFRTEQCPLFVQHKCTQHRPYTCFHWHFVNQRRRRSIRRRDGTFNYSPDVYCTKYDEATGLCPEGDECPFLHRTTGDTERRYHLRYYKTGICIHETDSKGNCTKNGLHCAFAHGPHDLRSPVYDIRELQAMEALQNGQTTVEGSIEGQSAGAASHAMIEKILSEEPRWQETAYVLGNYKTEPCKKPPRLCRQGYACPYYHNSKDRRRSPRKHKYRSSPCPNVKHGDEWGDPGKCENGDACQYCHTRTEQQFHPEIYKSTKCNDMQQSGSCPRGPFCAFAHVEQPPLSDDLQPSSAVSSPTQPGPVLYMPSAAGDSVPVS
# Setting: RNA with constant flanks, human and mouse sites, ends assumed
# Shared flanks, not repeated: GGGAGUUCUACAGUCCGACGAUC … CAACAGAGGAUUGAGCAUCA
Sequence,bound/input enrichment [ratio]
GGUGGUGCUACACGAAUCCCUGCGGUAAAAGAGAAGAUCAGCAAAUUUUUCGGUAAAGAACUUAGUACAACAUUAAAUGCUGAUGAAGCUGUCACUCGAGGCUGUGCAUUGCAGUGUGCC,1.12
AACUCCACGUGUGUGACUAUAAAACACCCUGUGGCCAAGAGCAGAUUGCCACUUCCCUUUCUCUGAAUUACUGCUUUCCCCGGUCAUUAACGUAUGGCCACAGCAUCCUGGGGUACAGGC,0.28
UUCUUCUUCCAGGGUCUGAUCCCCUUUGGUAUAGAUAAGGAAGUCCCGGUUGUAACUCUUUGAAUUGAAGCCAUUGAUUUGCAUAGUGCCUUAUGACUUUAAAAGAAGUUCUCAUUUGAA,0.104
UUUAGACAAAGAGAAGGGCCUUUUUAUCCAACCCUAAGAUUACUUCACAAAUAUCCUUUUAUCCUGCCACACCAGCAGGUUGAUAAAGGAGCCAUCAAAUUUGUACUCAGUGGAGCAAAU,0.264
ACACCAAAAGGUAAAGGCCGAGGGGCAAAGAAAAGGAAAGCAUCUGGCUCUGAAAAUGAAGGCGAUUAUAACCCUGGCAGGAAAACAUCCAAAACAACAAGCAAGAAACCGAAGAAGACA,0.38
AUGACCCUUGGACAGCAGGAUGUUUCCAAAGUCCUGCUAGGCCCUCUCUCUCCCUACACGAUAGAAUUUUUGCGGCAUUUGAAGAGCUUUUUCCAGAUUAUGUUUAAAAUUGAAACCAAG,3.94
CUCAUUCACCGGAAGAACCUCAACUAUCUGCACUUGGACUACAACUUCAACCUGAAGCCUGUCAAGACGCUCACCACCAAGGAAAGAAAGAAAUCCCGUUUUGGGAAUGCUUUCCAUCUA,0.123
GAACUGGUGGACUACAUUACAAUAAGCAGAGGCUGUUUGACAGAGCAGACUUACCCUGAAGUAGUUAGAAUGGUAUCUUGCAAUAUAUUCAGAACUCUCCCUCCUAGUGACAGCAAUGAA,0.66

# Set 5 — method: protein-binding microarray; form: double-stranded DNA, one strand shown; medium: in vitro; concentration: 250 nM; setting: 60-bp whole probe; together with: salmon DNA 0.4 mg/ml; reference: random background probes; reading: higher = stronger binding; shared flanks, not repeated: GCCTAGCAC … GTCTTGATTCGCTTGACGCTGCTG
# Target: Interferon regulatory factor 7, full length, phosphomimetic (IRF7, Homo sapiens, UniProt Q92985, residues 1-503, S101K/S471D/S472D/S475D/S476D/S477D/S483D/S484D/S487D)
# Construct (chain): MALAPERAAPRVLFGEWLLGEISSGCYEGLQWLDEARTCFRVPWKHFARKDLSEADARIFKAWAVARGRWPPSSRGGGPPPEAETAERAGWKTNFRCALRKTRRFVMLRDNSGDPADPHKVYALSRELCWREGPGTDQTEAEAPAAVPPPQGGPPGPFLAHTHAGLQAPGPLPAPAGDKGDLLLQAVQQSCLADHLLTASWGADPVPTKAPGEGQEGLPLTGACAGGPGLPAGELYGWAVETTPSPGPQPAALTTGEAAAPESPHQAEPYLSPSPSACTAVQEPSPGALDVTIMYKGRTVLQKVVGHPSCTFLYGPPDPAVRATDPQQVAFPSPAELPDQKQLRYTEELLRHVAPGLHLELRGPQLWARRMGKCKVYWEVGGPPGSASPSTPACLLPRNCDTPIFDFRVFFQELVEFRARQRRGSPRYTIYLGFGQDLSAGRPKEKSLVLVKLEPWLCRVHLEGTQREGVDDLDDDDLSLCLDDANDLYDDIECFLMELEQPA
Sequence,log fluorescence [z-score]
TTAGATCTCAGTCTCGATCAGTGCTAG,0.435
TTAGGACTGGACACTGGGTTAGTGCTA,-0.528
CTCCCTTTCAGTTTTCCTCTGTGCTAG,1.02
GACGGACTGCTTCTCGTGACGTGCTAG,-0.0655
TTAGGTCTCCTGATCCTTTAGTGCTAG,-0.208
GAACATTTCCTTTACATTCCGTGCTAG,1.11
CTGTCATCATCGTTCCCAGCGTGCTAG,0.474
ATATATATTCATATATATATGTGCTAG,1.14

# Excerpt of the above (set 1):
Variant,oxyanion analog dissociation constant
K363G,673 nM
N314V,757 nM
Y29V,1.12 µM
K357V,759 nM
D53G,517 nM
V109A,796 nM
F352G,515 nM
